Assay results collected from several papers.
Lines come from different studies, so protocols differ. Values joined by “and” are separate records of one study, mostly repeats; a detail may differ. ± gives the spread as reported. ≈ marks a conversion by molar mass, not a printed value.

SMILES | organism | test | test system | conditions | how to read | measurement | result
COC1C=COC2(C)Oc3c(C)c(O)c4c(c3C2=O)C2=NC3(CCN(CC(C)C)CC3)NC2=C(NC(=O)C(C)=CC=CC(C)C(O)C(C)C(O)C(C)C(OC(=O)Nc2cnccn2)C1C)C4=O (centres unmarked) | Mycobacteroides abscessus | bacterial growth | subsp. abscessus ATCC 19977 | – | – | IC90 | 44 nM
COc1cccc2c(-c3ccc4c(c3O)[C@@H](C)N[C@H](C)C4)c(CO)cc(OC)c12 | Plasmodium falciparum | parasite growth, SYBR Green | NF54 | blood stage | – | IC50 | 15.6 nM
COc1cc(Nc2n[nH]c3nc(-c4ccccc4)nc(N)c23)cc(OC)c1OC | rhinovirus B42 | viral cytopathic effect | HeLa | – | – | IC50 | 110 nM
COc1cccc2c(-c3ccc(O)c4c3C[C@@H](C)N[C@@H]4C)c(C)cc(O)c12 | Plasmodium falciparum | asexual parasite proliferation, SYBR Green I fluorescence | HB3 | – | – | IC50 | 16.3 ± 3 nM
Nc1nc(-c2ccccc2)nc2[nH]nc(Nc3cccc(F)c3F)c12 | rhinovirus B42 | viral cytopathic effect | HeLa | – | – | IC50 | 20 nM
Cc1cc(C(=O)N[C@@H](CC(=O)NC(C)(C)C)C(=O)NCCNC(=O)c2cc(-c3ccccc3)ccn2)no1 | Plasmodium falciparum | male gamete activation | NF54 | 48 h | – | EC50 | 190 nM
O=c1[nH]cc(C(c2ccc(C(F)(F)F)cc2)c2c[nH]c(=O)[nH]c2=O)c(=O)[nH]1 | Human immunodeficiency virus 1 | viral replication, inhibitor, ELISA | – | 1 µg/mL | – | inhibition | 11%
Nc1nc(-c2ccccc2)nc2[nH]nc(Nc3cc(F)c(F)c(F)c3)c12 | rhinovirus B42 | viral cytopathic effect | HeLa | – | – | IC50 | 240 nM
Cc1ncsc1-c1ccc(CNC(=O)[C@@H]2C[C@H](O)CN2C(=O)[C@@H](NC(=O)CN2CCN(C3CN(CCNC(=O)C[C@@H]4N=C(c5ccc(Cl)cc5)c5c(sc(C)c5C)-n5c(C)nnc54)C3)CC2)C(C)(C)C)cc1 | Spodoptera frugiperda | degrader, targeted LC-MS, measured: BRD3 | Sf9 | 0.01 µM | – | protein level | 130% and 159% and 150% and 167%
CC1=N[C@H](C)Cc2c(-c3ccc4ccccc4c3)ccc(O)c21 | Plasmodium falciparum | asexual parasite proliferation, SYBR Green I fluorescence | Dd2 | – | – | IC50 | 600 ± 120 nM
Cc1cccc2c1N(C(=O)n1ccnn1)CC2 | Striga hermonthica | – | seeds | 1 µM, with: 10 nM (±)-GR24 | – | germination rate | 83.8% and 93.2% and 85.2% and 67.9% and 84% and 69.6% and 80.6%
O=c1[nH]cc(C(c2cc(F)c(F)c(F)c2)c2c[nH]c(=O)[nH]c2=O)c(=O)[nH]1 | Human immunodeficiency virus 1 | viral replication, inhibitor, ELISA | – | 1 µg/mL | – | inhibition | 28%
CC(C)(C)NCC(SS(=O)(=O)O)c1ccccc1 (centres unmarked) | Schistosoma mansoni | – | infected mice | 600 mg/kg single, dosed day 15, perfusion day 44 | – | mean female worms recovered | 1.4 worms per mouse
C=C(C)[C@H](O)COc1ccc(CCO)cc1 | Zika virus | viral replication, CCK-8 | Vero C1008 | 10 µM, 96 h | – | inhibition | 0%
CC(=O)ON=C1C=CC(=C(C#N)c2ccccc2)C=C1 | Candidozyma auris | – | ATCC MYA-5001 | concentration not given | – | antifungal activity | active
Cc1c(CN(C)C(=O)/C=C/c2cnc3c(c2)CC(N)C(=O)N3)oc2ccccc12 (centres unmarked) | Acinetobacter baumannii | broth microdilution | AR-0083 | – | – | MIC | 16 µg/mL (≈ 41 µM)
CN(C)c1ccc(C(c2c[nH]c(=O)[nH]c2=O)c2c[nH]c(=O)[nH]c2=O)cc1 | Human immunodeficiency virus 1 | viral replication, inhibitor, ELISA | – | 1 µg/mL | – | inhibition | 7%
CCc1ccc(-c2nc(N)c3c(Nc4ccccc4)n[nH]c3n2)cc1 | rhinovirus B42 | viral cytopathic effect | HeLa | – | – | IC50 | 490 nM

SMILES | organism | test | test system | conditions | how to read | measurement | result
C=C[C@]1(C)C[C@@H](OC(=O)CSc2ccc(NC(=O)c3ccco3)cc2)[C@]2(C)[C@H](C)CC[C@]3(CCC(=O)[C@H]32)[C@@H](C)[C@@H]1O | Mycoplasma gallisepticum | – | infected chickens | intramuscular, 80 mg/kg daily x3, scale 0 to 4 | direction not given | air sac lesion score | 2 and 1 and 0
CC1=N[C@H](C)Cc2c(-c3ccc(C)cc3)ccc(O)c21 | Plasmodium falciparum | asexual parasite proliferation, SYBR Green I fluorescence | HB3 | – | – | IC50 | 1030 ± 110 nM
COCCN(C)CC(=O)NC(Cc1ccc(-c2ccccc2)cc1)B(O)O (centres unmarked) | Plasmodium berghei | – | HepG2 | concentration not given | – | reduction of liver-stage parasite biomass | 98%
Cc1cccc(Nc2n[nH]c3nc(-c4ccccc4)nc(N)c23)c1 | coxsackievirus B3 | viral cytopathic effect | HeLa | – | – | IC50 | 60 nM
CC1(C)Cc2c(-c3cccc4ccccc34)ccc(O)c2C=N1 | Plasmodium falciparum | parasite growth, SYBR Green | NF54 | blood stage | – | IC50 | 1630 nM
Cc1ccc(Nc2n[nH]c3nc(-c4ccc(F)cc4)nc(N)c23)cc1 | coxsackievirus B3 | viral cytopathic effect | HeLa | – | – | IC50 | 31200 nM
COc1ccc(C(c2c[nH]c(=O)[nH]c2=O)c2c[nH]c(=O)[nH]c2=O)cc1OC | Human immunodeficiency virus 1 | viral replication, inhibitor, ELISA | – | 1 µg/mL | – | inhibition | 19%
CN(Cc1ccc(C2(C(F)(F)F)CCC2)cc1)Cc1cccc2ccccc12 | Trichophyton mentagrophytes | microbial growth, disc diffusion | ATCC18748 | 0.008 µg/mL, 72 h | – | inhibition zone | 15.8 mm
O=Cc1cccc(C(c2c[nH]c(=O)[nH]c2=O)c2c[nH]c(=O)[nH]c2=O)c1 | Human immunodeficiency virus 1 | viral replication, inhibitor, ELISA | – | 1 µg/mL | – | inhibition | 7%
CCCCCCCCCC(=O)N[C@@H](Cc1c[nH]c2ccccc12)C(=O)N[C@H](CC(N)=O)C(=O)N[C@@H](CC(=O)O)C(=O)N[C@@H]1C(=O)NCC(=O)N[C@@H](CCCNC(=O)OC2/C=C/CCCCC2)C(=O)N[C@@H](CC(=O)O)C(=O)N[C@H](C)C(=O)N[C@@H](CC(=O)O)C(=O)NCC(=O)N[C@H](CO)C(=O)N[C@@H]([C@H](C)CC(=O)O)C(=O)N[C@@H](CC(=O)c2ccccc2N)C(=O)O[C@@H]1C (some centres unmarked) | Staphylococcus aureus | planktonic bacterial growth, isothermal microcalorimetry | MSSA | 3.0 µg/mL, 24 h, 37 °C, with: TAG hydrogel | – | peak heat flow time | 0 h
CNCc1ccc2c(c1)N(C(=O)OCc1c(F)c(F)c(F)c(F)c1F)[C@H](CNC(=N)N)[C@H]2NC(=O)C(=O)Nc1ccc(Cl)c(F)c1 | HIV-1 | pseudovirus infection, Env pseudovirus neutralisation | TZM-bl, clade B T/F isolate d15_410_787 | – | – | IC80 | 919 nM
CN(C)CCCSC(=S)N1CCN(C(=O)/C=C/c2coc3ccccc3c2=O)CC1 | Pepper mild mottle virus | inactivation activity | host plant | 500 µg/mL | – | inhibition | 67% and 75% and 71%
Nc1nc(-c2ccccc2)nc2[nH]nc(Nc3ccccc3)c12 | rhinovirus B42 | viral cytopathic effect | HeLa | – | – | IC50 | 20 nM
O=C(O)c1cc(O)cc(O)c1 | Streptomyces coelicolor | RT-PCR | – | 2 mM, 1 h | – | pcaH mRNA level | increased
C=C(NC(=O)c1csc(-c2nc3c(cc2O)-c2nc(cs2)C(=O)NC(C(C)O)C(=O)NC(=C(C)OC)c2nc(cs2)C(=O)NC2c4nc(cs4)C(=O)NC(COC(=O)c4c5c6c(cccc6n4O)COC(=O)C(OC4CC(C)(O)C(N(C)C)C(C)O4)C2OC5)c2nc-3cs2)n1)C(N)=O (centres unmarked) | Streptococcus pneumoniae | – | penicillin-resistant, 10 isolates | serum 0% | – | MIC50 | 0.0078 µg/mL (≈ 0.00543 µM)
Nc1nc(-c2ccncc2)nc2[nH]nc(Nc3ccc(F)cc3)c12 | rhinovirus B42 | viral cytopathic effect | HeLa | – | – | IC50 | 1250 nM
CC[C@H](C)[C@H](NC(=O)[C@H](Cc1ccc(O)cc1)NC(=O)[C@H](CCC(=O)O)NC(=O)CNC(=O)[C@H](CCC(=O)O)NC(=O)[C@H](CCCCN)NC(=O)[C@H](CCCCN)NC(=O)[C@H](CC(=O)O)NC(=O)[C@H](Cc1c[nH]cn1)NC(=O)[C@H](Cc1c[nH]cn1)NC(=O)[C@H](Cc1c[nH]cn1)NC(=O)[C@H](Cc1c[nH]cn1)NC(=O)[C@H](Cc1c[nH]cn1)NC(=O)[C@H](Cc1c[nH]cn1)NC(=O)[C@H](Cc1c[nH]cn1)NC(=O)[C@H](Cc1c[nH]cn1)NC(=O)[C@H](Cc1c[nH]cn1)NC(=O)[C@@H](N)Cc1c[nH]cn1)C(=O)N[C@@H](CCCCN)C(=O)N[C@@H](CC(C)C)C(=O)N[C@@H](CCCCN)C(=O)N[C@H](C(=O)N[C@H](C(=O)NCC(=O)N[C@@H](CCC(N)=O)C(=O)N[C@@H](CC(=O)O)C(=O)N[C@@H](CO)C(=O)N[C@@H](CO)C(=O)N[C@@H](CCC(=O)O)C(=O)N[C@H](C(=O)N[C@@H](Cc1c[nH]cn1)C(=O)N[C@@H](Cc1ccccc1)C(=O)N[C@@H](CCCCN)C(=O)N[C@H](C(=O)N[C@@H](CCCCN)C(=O)N[C@@H](CCSC)C(=O)N[C@H](C(=O)N[C@H](C(=O)N[C@@H](Cc1c[nH]cn1)C(=O)N[C@@H](CC(C)C)C(=O)N[C@@H](CCCCN)C(=O)N[C@@H](CCCCN)C(=O)N[C@@H](CC(C)C)C(=O)N[C@@H](CCCCN)C(=O)N[C@@H](CCC(=O)O)C(=O)N[C@@H](CO)C(=O)N[C@@H](Cc1ccc(O)cc1)C(=O)N[C@@H](CS)C(=O)N[C@@H](CCC(N)=O)C(=O)N[C@@H](CCCNC(=N)N)C(=O)N[C@@H](CCC(N)=O)C(=O)O)[C@@H](C)O)[C@@H](C)O)C(C)C)[C@@H](C)CC)[C@@H](C)CC)C(C)C | Drosophila melanogaster | immunoblot | head | 240 µM, normalised to β-actin, unit not given | relative to: untreated | TH level mean difference | -0.327
